Results from different studies.
Parts stem from different laboratories: compare values within a part only.

Set 1 — technique: RNA Bind-n-Seq; molecule type: RNA; matrix: in vitro; tested at: not given; baseline: input RNA pool; reading: higher = stronger binding
Target: RING finger protein unkempt homolog, zinc fingers 1-6, GST-SBP tag (UNK, Homo sapiens, UniProt Q9C0B0, residues 30-357)
Sequence of UniProt Q9C0B0 (30-357, looked up): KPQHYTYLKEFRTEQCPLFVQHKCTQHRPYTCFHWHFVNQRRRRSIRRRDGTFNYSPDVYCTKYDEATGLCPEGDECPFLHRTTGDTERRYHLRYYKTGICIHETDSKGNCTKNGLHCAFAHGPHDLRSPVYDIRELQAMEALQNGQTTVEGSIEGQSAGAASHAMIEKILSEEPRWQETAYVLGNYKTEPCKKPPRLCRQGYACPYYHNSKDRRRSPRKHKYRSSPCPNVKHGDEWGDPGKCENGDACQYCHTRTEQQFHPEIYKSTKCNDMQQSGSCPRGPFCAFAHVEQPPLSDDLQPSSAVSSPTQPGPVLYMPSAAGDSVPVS
Notes: RNA with constant flanks, human and mouse sites, ends assumed
Shared flanks, not repeated: GGGAGUUCUACAGUCCGACGAUC … CAACAGAGGAUUGAGCAUCA
Strand | bound/input enrichment
GGAUCAUUCACAGUGAGGACAGACACAGGUGAACCUAUGGGUCGUGGAACAAAAGUUAUCCUACACCUGAAAGAAGACCAAACUGAGUACUUGGAGGAACGAAGAAUAAAGGAGAUUGUG | 0.491 ratio
CUCCAAGAAGAUACUCUAUCCGAUGUUGCUCCUCCCAGAGAUAUGUCCUUAUAUGCCUCACUCACCUCUGAAAAAGUGCAAAGUCUGGAAGGAGAGAAGCUCUCUCCAAAAUCUGAUAUC | 0.436 ratio
CUUUUUAAGAAGAUAUGUGAUGGGAUCUUCUAUACCCCUCAAUAUUUAAAUCCUUCUGUGAUUAGCCUUUUGAAACAUAUGCUGCAGGUGGAUCCCAUGAAGAGGGCCACAAUCAAAGAU | 0.383 ratio
CCUGGCUUCUUAAGGCUGUGCACCACUAUGGGAUCCUUUGCAGAAUGGUACUCAUAAAAUGGUUUAAACAACACAUGCUUAAUUGACUGUGCAGGAUGUCAAUCAAUCUGGGUUUGCUUU | 0.168 ratio
GUGACUUUGGAAGUCCGUAGUGUCUCAUUGCAGAUAAUUUUUAGCUUAGGGCCUGGUGGCUAGGUCGGUUCUCUCCUUUCCAGUCGGAGACCUCUGCCGCAAACAUGCUCCGCCAGAUCA | 7.75 ratio
CCUCCUUAUGCAAACGGUGACCCUCAUGUUGGACAUGCUUUAAAUAAGAUUUUGAAAGACAUAGCCAAUCGAUUCCAUAUGAUGAAUGGCUCCAAAAUACAUUUUGUGCCCGGCUGGGAU | 0.217 ratio
UUCGGUGUUAUCCGGUCACUCAUGGCCUUUAGGCUGACAGGUGGCACCAAAGACUACAUUGUAGUUGGCAGUGACUCUGGUCGAAUUGUUAUUUUGGAAUACCAGCCAUCUAAGAAUAUG | 0.107 ratio
ACCGUGCCCUAGAAUUUGCCCCUGCCUGCCAUCGCUUCAAAAUCCUCAAGGCAGAAUGUUUAGCAAUGCUGGGUCGUUAUCCAGAAGCACAGUCUGUGGCUAGUGACAUUCUACGAAUGG | 0.351 ratio
UGCUAUCAGAGAAGAAAAUGAAAAACGAUUACGUGAAUCAUCAGGUACACUUUCAGGAAACACAGGAGACAUACCCGAAAAAAAGGAAAAGUCUUCAGAGAUAAUAAAAGUCGCAGCAGA | 0.131 ratio
CGCCUCGGGUCGUGGAGCCAGGAGCGACGUCACCGCCAUGGCAGGCAUCAAAGCUUUGAUUAGUUUGUCCUUUGGAGGAGCAAUCGGACUGAUGUUUUUGAUGCUUGGAUGUGCCCUUCC | 0.181 ratio
AGUAUUAUUUAGUGAAUUAAUCUGACCGUACAGAAGAGUCAUGUUCUGACCUCAAUACUAUAGUAACUUUUAGGCUUGGAAAUAAAAGUUUGUUGGUAUCUACUGGCAAGUAUUUAAGUU | 1.61 ratio

Set 2 — technique: universal PBM; molecule type: double-stranded DNA, one strand shown; matrix: in vitro; tested at: not given; reading: higher = stronger binding
Target: Sal-like protein 4, full length isoform B (SALL4, Homo sapiens, UniProt Q9UJQ4-2, residues 1-616)
Notes: 8-mer, flanks averaged, mean of replicates
Strand | E-score
CATCTAAG | -0.0442
CAGGTCGC | -0.0818
TCCACGGA | 0.0533
ATACACTG | 0.154
AGACGGTC | -0.152
AACGCAGT | -0.0883
AGCACCTG | -0.00335
ATGGTTTC | 0.118
AAGAAGGA | -0.0151
GGCCTAAC | -0.15
AGGTGTGC | -0.114
AATATGGG | 0.253
TCATTAGA | 0.189
ACAAAAAG | 0.16
CAACGCCA | -0.128

Set 3 — technique: RNA Bind-n-Seq; molecule type: RNA; matrix: in vitro; tested at: 1 µM; notes: whole 134-nt RNA, ends assumed; added: 150 mM KCl; baseline: input library; reading: higher = stronger binding
Target: Ras GTPase-activating protein-binding protein 1, RRM domain (G3BP1, Homo sapiens, UniProt Q13283)
Sequence of UniProt Q13283 (whole entry, looked up): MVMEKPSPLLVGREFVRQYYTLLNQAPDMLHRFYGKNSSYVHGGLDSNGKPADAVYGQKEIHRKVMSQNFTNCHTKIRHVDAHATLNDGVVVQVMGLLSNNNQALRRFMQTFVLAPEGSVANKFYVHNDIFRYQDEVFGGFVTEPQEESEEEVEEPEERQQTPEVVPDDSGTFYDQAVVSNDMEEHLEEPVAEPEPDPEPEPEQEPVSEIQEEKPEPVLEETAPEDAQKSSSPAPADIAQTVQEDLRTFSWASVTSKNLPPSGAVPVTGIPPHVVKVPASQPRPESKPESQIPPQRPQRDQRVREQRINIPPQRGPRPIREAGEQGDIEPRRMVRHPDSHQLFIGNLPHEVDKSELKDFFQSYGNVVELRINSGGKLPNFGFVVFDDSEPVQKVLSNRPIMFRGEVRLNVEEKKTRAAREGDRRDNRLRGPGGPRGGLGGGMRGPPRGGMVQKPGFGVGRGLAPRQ
Shared flanks, not repeated: GGGAGUUCUACAGUCCGACGAUC … UGGAAUUCUCGGGUGUCAAGG
Strand | log2 enrichment
UCAAGUCCUGUGCUACACAUCGUAUGUACCGAAUCGGGGAAGGGAAGGGGAAGGGAAAGUAUUAUGUUACGCCGUUCGGAUCUGCACUUC | 0.818
UCAUGUAUAGACAACGCCAUUAUUGACGAGAUCACUCCCAAGCGGAUUGGAGAUUGUCCCAAUAUUUAGACCUAUAGCAAGGCCUUGGGA | 0.0282
AGUCCUGUGCUACACAUCGUAUGUACCGAAUCGGGGAAAAGGGGAAAAGGGAAAAGGGAAAGUAUUAUGUUACGCCGUUCGGAUCUGCAC | 0.39
UCCUGUGCUACACAUCGUAUGUACCGAAUCGUGUGUGUGUGUGUGUGUGUGUGUGUGUGUAAAGUAUUAUGUUACGCCGUUCGGAUCUGC | 0.0407
UUUCCAGCAGUACCAGCUCCAGCCAGGAUCACCCUCUCUACUCUGGGCACCCAUCCCUUCCACUAAGUGGUGCUAUUGCUGCUUUUGCCU | 0.227
AAGUCCUGUGCUACACAUCGUAUGUACCGAAUCGGUUUUGGGUUUUGGUUUUGGGGAAAGUAUUAUGUUACGCCGUUCGGAUCUGCACUU | -0.188
UCCUGUGCUACACAUCGUAUGUACCGAAUCGGGGCCCCCCGGCCCCCCGGCCCCCCGGGAAAGUAUUAUGUUACGCCGUUCGGAUCUGCA | -0.41
UCCUGUGCUACACAUCGUAUGUACCGAAUCGGGGUGGGGAAAAAAAGGGGAAAAAGGGGAAAGUAUUAUGUUACGCCGUUCGGAUCUGCA | 0.801
GUCCUGUGCUACACAUCGUAUGUACCGAAUCGGAAAAAGGUUUUUUUGGAAAAAAAGGAAAGUAUUAUGUUACGCCGUUCGGAUCUGCAC | -0.246
CAAGUCCUGUGCUACACAUCGUAUGUACCGAAUCGGGGCCCGGGCCCGGCCCGGGAAAGUAUUAUGUUACGCCGUUCGGAUCUGCACUUC | -0.832
CCUGUGCUACACAUCGUAUGUACCGAAUCGGGUUUUUUUGGGGUUUUUUUGGUUUUUUUGGAAAGUAUUAUGUUACGCCGUUCGGAUCUG | -0.147

Single results of other studies
Substance | target | test | system | setting | how to read | endpoint | value
PhoQ, residues 284 288 289 292 302 303 SLGVVW | PhoP, residues 12 14 15 18 19 TPLRH (Escherichia coli, UniProt P23836) | Sort-seq, measured: YFP reporter | E. coli | PhoQ-PhoP variant library, added: 10 µM Mg2+ | baseline: high Mg2+ state, higher = stronger signaling | fold induction | 8.7

For quick reference, copied from above (set 3):
Strand | log2 enrichment
CCUGUGCUACACAUCGUAUGUACCGAAUCGGGUUUUUUUGGGGUUUUUUUGGUUUUUUUGGAAAGUAUUAUGUUACGCCGUUCGGAUCUG | -0.147
AGUCCUGUGCUACACAUCGUAUGUACCGAAUCGGGGAAAAGGGGAAAAGGGAAAAGGGAAAGUAUUAUGUUACGCCGUUCGGAUCUGCAC | 0.39
CAAGUCCUGUGCUACACAUCGUAUGUACCGAAUCGGGGCCCGGGCCCGGCCCGGGAAAGUAUUAUGUUACGCCGUUCGGAUCUGCACUUC | -0.832
UCAUGUAUAGACAACGCCAUUAUUGACGAGAUCACUCCCAAGCGGAUUGGAGAUUGUCCCAAUAUUUAGACCUAUAGCAAGGCCUUGGGA | 0.0282
